# Measurements pooled from the literature.
# Lines come from different studies, so protocols differ. ± gives the spread as reported.
# Target: Indoleamine 2,3-dioxygenase 1 (IDO1, Homo sapiens, UniProt P14902)
# Chain of UniProt P14902 (whole entry, looked up): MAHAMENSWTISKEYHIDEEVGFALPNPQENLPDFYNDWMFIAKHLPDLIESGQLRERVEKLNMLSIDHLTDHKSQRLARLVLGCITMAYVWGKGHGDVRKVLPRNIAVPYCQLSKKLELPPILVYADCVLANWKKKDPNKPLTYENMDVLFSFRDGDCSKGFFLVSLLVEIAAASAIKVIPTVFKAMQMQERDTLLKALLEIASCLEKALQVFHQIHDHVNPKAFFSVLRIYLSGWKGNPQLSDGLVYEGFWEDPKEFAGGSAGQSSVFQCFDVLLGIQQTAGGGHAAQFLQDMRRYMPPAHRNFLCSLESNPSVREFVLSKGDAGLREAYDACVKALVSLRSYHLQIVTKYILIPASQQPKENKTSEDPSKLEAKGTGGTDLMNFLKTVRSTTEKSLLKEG
SMILES,read-out,mode,cell line,time,with,IC50 [µM]
N=C(N)SCc1ccccc1CSC(=N)N,enzyme activity,inhibitor,,,200 µM L-tryptophan,1.71
Cc1cc(O)c2c(c1)[C@H]([C@@H]1O[C@H](CO)[C@@H](O)[C@H](O)[C@H]1O)c1cccc(O)c1C2=O,kynurenine formation,inhibitor,,,,44.8 ± 1.32
Cc1sc(Nc2ccccc2)nc1C(=O)O,,inhibitor,,,,262
O=C1CCC(N2Cc3c(NC(=O)COCCOCCOCCOCCNCCNc4nonc4/C(=N/O)Nc4ccc(F)c(Br)c4)cccc3C2=O)C(=O)N1 (stereo not drawn),kynurenine production,inhibitor,HeLa,,,5.91
N=C(N)SCc1cccc(CSC(=N)N)c1,enzyme activity,inhibitor,,,200 µM L-tryptophan,> 30
CN1C(=O)CCC(N2C(=O)c3cccc(NCCOCCOCCOCCOCCOCCOCCOCCNCCNc4nonc4/C(=N/O)Nc4ccc(F)c(Br)c4)c3C2=O)C1=O (stereo not drawn),kynurenine production,inhibitor,HeLa,,,7.23
O=C1c2c(O)cccc2[C@H]([C@@H]2O[C@H](CO)[C@@H](O)[C@H](O)[C@H]2O)c2cc(CO)cc(O)c21,kynurenine formation,inhibitor,,,,40.3 ± 0.8
Cc1cc(=O)c(O)c(CN2CCSCC2)n1C,,inhibitor,,,,43.9
COC1=Cc2c(cc(O)c3cc(C)c(OC)cc23)C(C)(C)C1=O,kynurenine production,,HEK293 expressing human IDO1,12 h,,18.4
C[C@@H]1O[C@@H](OCc2cc(O)c3c(c2)[C@H]([C@@H]2O[C@H](CO)[C@@H](O)[C@H](O)[C@H]2O)c2cccc(O)c2C3=O)[C@H](O)[C@H](O)[C@H]1O,kynurenine formation,inhibitor,,,,43.9 ± 1.95
O=C1CCC(N2Cc3c(NC(=O)COCCOCCOCCNCCNc4nonc4/C(=N/O)Nc4ccc(F)c(Br)c4)cccc3C2=O)C(=O)N1 (stereo not drawn),kynurenine production,inhibitor,HeLa,,,8.16
CCN(c1ccccc1)c1nc(Cl)nc2[nH]ncc12,,inhibitor,,,,> 1000

# Excerpt of the above:
SMILES,read-out,mode,cell line,time,with,IC50 [µM]
Cc1sc(Nc2ccccc2)nc1C(=O)O,,inhibitor,,,,262
